Measurements from different studies.
Parts stem from different laboratories: compare values within a part only. Changes are numbered by the printed parent chain.

Block 1
Target: Fragile X messenger ribonucleoprotein 1, C-terminal low-complexity region (Fmr1, Mus musculus, UniProt P35922)
Technique: RNA Bind-n-Seq
Form: RNA
Medium: in vitro
Concentration: 200 nM
Setting: whole 134-nt RNA, ends assumed
Together with: 150 mM LiCl
Relative to: input library
Direction: higher = stronger binding
Endpoint: log2 enrichment
Library: 7-deaza-guanosine replaces G
All sequences stand within: GGGAGUUCUACAGUCCGACGAUC … UGGAAUUCUCGGGUGUCAAGG
AAGUCCUGUGCUACACAUCGUAUGUACCGAAUCGGGUUUGGGGUUUGGGUUUGGGGAAAGUAUUAUGUUACGCCGUUCGGAUCUGCACUU: -1.18
UGGCCCUGGUGGCAUGCGGGGAGGAAGAGGUGGCCUCAUGGUUCGUGGUGGUCCCGGUGGAAUGUUCAGAGGUGGCCGUGGUGGAGACAG: -0.22
AGUCCUGUGCUACACAUCGUAUGUACCGAAUCGGGAAAAAGGGUUUUUUUGGGUGGGAAAGUAUUAUGUUACGCCGUUCGGAUCUGCACU: -2.61
CUCAAGUCCUGUGCUACACAUCGUAUGUACCGAAUCGGGGAAGGAAGGAAGGGAAAGUAUUAUGUUACGCCGUUCGGAUCUGCACUUCCA: -1.02
UGGGAGGUGGAUUUUGUUUAUUUUUUUAGCUCAUUUCCAGGGGUGGGAAUUUUUUUUUAAUAUGUGUCAUGAAUAAAGUUGGUUUUGAAA: 0.397
UGGUUAGUCAACUACUUUGGUUCCUUAUCAGUAGAAGACUCCCUAGAAUGUCUCAGAGCCAUGCUGUCUGCCAACAUCCGUCAGAAUCUG: 0.0392
UCAAGUCCUGUGCUACACAUCGUAUGUACCGAAUCGGAAAAAGGAAAGGUUUGGAAAGUAUUAUGUUACGCCGUUCGGAUCUGCACUUCC: -1.71
UUAGAAGAAGUGGAAAGGAAAAAACGCCAAAGGGAGUUGGAAAUUGAAGAACGAGAACGGCGUAGAGAGGAAGAGAGAAGACUUGGCGAU: 1.66
UCCUGUGCUACACAUCGUAUGUACCGAAUCGGGGCCCCCCGGCCCCCCGGGCCCCCCGGAAAGUAUUAUGUUACGCCGUUCGGAUCUGCA: 0.0738
AAGUCCUGUGCUACACAUCGUAUGUACCGAAUCGGGUUUUUGGGUGGGUUUUUGGGAAAGUAUUAUGUUACGCCGUUCGGAUCUGCACUU: -1.76
CUCAAGUCCUGUGCUACACAUCGUAUGUACCGAAUCGGAAAGGAAAGGAAAGGGAAAGUAUUAUGUUACGCCGUUCGGAUCUGCACUUCC: -0.0905

Block 2
Target: RING finger protein unkempt homolog, zinc fingers 1-6, GST-SBP tag (UNK, Homo sapiens, UniProt Q9C0B0, residues 30-357)
UniProt Q9C0B0, sequence (30-357, looked up): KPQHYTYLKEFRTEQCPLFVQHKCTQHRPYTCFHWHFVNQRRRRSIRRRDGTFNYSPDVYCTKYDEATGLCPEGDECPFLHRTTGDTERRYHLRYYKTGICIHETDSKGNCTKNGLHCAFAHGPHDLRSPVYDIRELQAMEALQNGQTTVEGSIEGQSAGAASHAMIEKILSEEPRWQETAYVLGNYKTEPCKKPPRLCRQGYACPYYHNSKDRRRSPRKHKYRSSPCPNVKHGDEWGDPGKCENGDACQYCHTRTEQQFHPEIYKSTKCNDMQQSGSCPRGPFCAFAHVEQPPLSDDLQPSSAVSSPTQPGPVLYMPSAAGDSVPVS
Technique: RNA Bind-n-Seq
Form: RNA
Medium: in vitro
Concentration: not given
Setting: RNA with constant flanks, ends assumed
Relative to: input RNA pool
Direction: higher = stronger binding
Endpoint: bound/input enrichment
All sequences stand within: GGGAGUUCUACAGUCCGACGAUC … CAACAGAGGAUUGAGCAUCA
AUUCAUUUUUAAUUUUAAUUUUAUUUUAUACAACGUGUAGACGGUUCCCUGUUCUCUGCAUUCCGAAGUAUACACAGUACAACUGUUAAUUCUGUAAGUAAUUUUUAUAAUUAUGAUGUA: 6.69 ratio
GGGAAAAACAGCCUCUCCGUACUUUCACCAAAAAUUGGAAAUCUACUAUUUCUUUCCUACUCCGACAUCAAAGGCAAUCACUUUGAAGUCCUCCCUCCCGAGCUGGGAGACUGCCGGGCU: 0.328 ratio
UCCCAGCACUUUGAUAAAAAGUGUGGACUGGUUGCUUGUAUUUUCCUUAUUCUUUUUAAUCCGUUUUAUUAUGUAUGCUACCAUUCGAACUGAGAGUAUUCGGUGGCUAAUUCCAGGACA: 1.06 ratio
GUGAUUUUUUCCCCCCCAACUCCGUGUUUCGCUAAGGAAUUAUUUCGCACACGGACCAUUCUCCGCAGUUUCCUCAGUGAUGGAAUAUUCAUGAAUGUGAGUCAUUAUGUAGCCGUCGUA: 0.355 ratio
AGUUUGUGCCGUUGCCCUUUCCCCAUAUGCCACUAGUGUGUAGGCAGAUGUCUGAGUCUCCCGGUGGUUUCUCCAUUUUAUAGCAGUUAGCUUUGAUGACCCUACUCCACGAAAAAUAAA: 0.796 ratio
GAGGAAUUUGGUGUUGUCUCAAAUACAAGAUUGAUUGCUGCUACUACUUCUGUAUUAAAAACCCGAUUUUCAUAUGCUUUUCCAAAGGAAUUUCCUUACAGGAUGAAUCAUAUACUAGAA: 0.414 ratio
GAUCAGAUUUCAACCUGGGACUGGAUUACAGAGGAUUGUUUCUAAUAACAACAUCAAUAUUCCCGAAGUCCCUGACAGCCUAGAAAUAAGCUGUUUGUCUUCUAUAAAGCAUUGCUAUAG: 0.123 ratio
AGCAAUGAAAAAGCAGCCCUUCUCCCAGCCCCCUUUUCACUAGGAGACACAAACAUUACAACCGAAGAGCAAUUAAACUCAAUAAAUUUAUCUUUUCAGGAUGAUCCAGAUUCCAGUACC: 2.3 ratio
CGGAACUGCCUAGUGGGCGAGAACCAUGUGGUGAAAGUGGCCGACUUUGGUUUAAGCCGACUGAUGACUGGAGAUACCUACACUGCUCAUGCUGGAGCCAAAUUUCCUAUUAAAUGGACA: 0.151 ratio
AAGUGUGUUUCCACUCAAAGAAAGAAAAGGUUCACGAAGAACAUAAAUGCUGGCUUUUCCCUCCGCCCCAAUAUCAGUAAACAUCUGGCCAGCCUAUCAGUGGUUGGAAACAGGAGUCCC: 0.328 ratio
UUGUGUUUUGUACAGGGCAUUCUCUGUACUAGUUUGUCGUGGUUAUAAAACAAUUAGCAGAACCGCCUACAUUUGUAUUUAUUUUCUAUUCCAUACUUCUGCCCACGUUGUUUUCUCUCA: 2.58 ratio

Block 3
Target: CEBPB, bZIP domain (human)
Technique: DHFR protein complementation
Medium: yeast
Setting: single substitutions, most at no-binding floor
Relative to: wild-type JUN-FOS pair
Direction: higher = stronger binding
Endpoint: binding fitness
Starting sequence: JUN, bZIP domain (human); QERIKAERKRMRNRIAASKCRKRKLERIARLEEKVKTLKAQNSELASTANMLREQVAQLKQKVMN; partner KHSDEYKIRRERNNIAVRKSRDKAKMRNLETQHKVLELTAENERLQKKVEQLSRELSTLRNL
Q55Y: -1.11 natural log
V35E: -1.39 natural log
E44N: -1.47 natural log
L45V: -1.5 natural log
S47W: -1.39 natural log
E33F: -1.46 natural log
T48V: -1.33 natural log
R53T: -1.05 natural log
A46R: -1.14 natural log
Q41E: -1.44 natural log
K34A: -1.34 natural log
S47P: -1.5 natural log
A46T: -1.28 natural log
I28F: -1.34 natural log
L38A: -1.46 natural log
L38H: -1.47 natural log
A29C: -1.39 natural log
E32Y: -1.53 natural log
E32A: -1.1 natural log
I28W: -1.1 natural log
K34Q: -1.25 natural log
S43F: -1.12 natural log
E33D: -1.33 natural log
R53V: -1.27 natural log
K34V: -1.34 natural log

Block 4
Target: RNA binding protein fox-1 homolog 2, RRM domain, GST-SBP tag (RBFOX2, Homo sapiens, UniProt O43251-10, residues 100-194)
Technique: RNA Bind-n-Seq
Form: RNA
Medium: in vitro
Concentration: 365 nM
Setting: natural RNA segment, single round, ends assumed
Relative to: no-protein control
Direction: higher = stronger binding
Endpoint: RBNS enrichment (R)
All sequences stand within: GGGAGUUCUACAGUCCGACGAUC … UGGAAUUCUCGGGUGCCAA
Residues (chain): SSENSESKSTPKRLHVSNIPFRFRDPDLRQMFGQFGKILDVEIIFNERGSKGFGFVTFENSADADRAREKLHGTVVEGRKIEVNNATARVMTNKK
ACACUGAUGGCUGACAGUGUGUGCGUCCUUCACGCCGGUGUGCAACGUACGCAGUGUUUACUCAGUGUGGCUCCCGCCUCAGACUGAAUUAAAGUAUUACUAUAGCAUGC: 3.95
CUUUAGUCAGGGCCACACCUUCUGAUGGCAUUCAAAUAUAAGGCUGUGGAAGAAGGAAGCUUUUGCGGUUGUUUCCUUGCUCCUGCUAGUAAGUCCAUGCCUUCAAUAGG: 0.389
AAGAAAUAUGUUUAUUUUGGGCAAAGAUUUGCUUAUUGGCCUGGGAUUGCACAUUUUCUCUAUGAUGUUUGCAACAGAGAAAUUUUCAUUUUAAUGAUACUCUUCCUUUC: 0.957
AUCCAGGAAUUUUAAACUAAAGCAAUGAGUUGUCUGUCACCUUGCCCUGGAACUCCAGCGUAACCUGCCUUAGUGUUCCUUGUGUUGUCUGCUUUGAUGUAAAACCACAG: 0.222
CUGAGCUUUGGGACACAGGACACUGCCAGGGCUACGUAGGGAACUGACUCAGAAGACGCAGCUUACUGCUUCCAACUUUGCACAUCUUCCUCUUUAAAAAACUGAGAAAA: 0.246
CAAUAGUGUAGCUUUUCUACGGGUGACCAGCAGGAGGCUAGACAGGUGGGGGGGUAGGGGAAAGCCACUUUUCCCGGAGGCUUCUCCUCCUCUGCCUGGCCUGUUCCUGU: 0.48
GCGGGUGACUGACUGUUCCCUGAUGAUUUGGCCCACCUCCUGUGUUUGGACCUCUAGGGAGGAGGGUUUUGGUCAUACUCUCCUUAUCCUCGUGCACAGAAAUGCUCAGG: 0.94
GUUCAAACUCUAUCUACCAGUUCAGAACAAGGCCAAGCAAUAACUGGAUAGCAGCUAAGGGGACAGACUCUGGAUGUGAGUCUUAGUUUAAAAAGGAAACUACAUGGAGA: 0.739
CUAAAAUGCCCAUGUUUACCUGUAUUGACCAAAGCUUUCAGUUGUUCUUCAUUCUGUGCUCAGGAUUGAAAUGCUGCGUAGACGUUGUGUUGUUAGUGCUGGGCACGGAU: 0.414
CAAACCAAUCAAAUAUGGUCCUAAGAAUGCAGGGUGGGAUUAGAGCCAGUGUCUCUGCUUGAGAUGGAAUGGUGUUCCCAGCCUGCCUUGUCACUCCUCACCUGAGAGGA: 0.217
AAGCAGGACAGUGUGCGUGCACGAGCUCCGAGCCCAGCACAGACAUGCCUGGAACCCCCGCCGCCUGCUGCUCCCUCCUAGGGAACCCAUUUCCGGGGAACGCCGUGACU: 0.361
AACCCUUCCAAUACAAGAAUAAGUGGACUAGACUUCCAGUGAUCCCUCUCCCAGCUCUUCCCUUUCCCAGUUGUCCCCACUGUAACUCAAAAGGAUGGAAUACCAAGGUC: 0.444

Block 5
Target: CCNB1, cyclin fold, Cln2 fusion (human)
Technique: yeast growth competition, sequencing
Medium: yeast
Setting: weak parent motif
Relative to: not given
Direction: higher = stronger binding
Endpoint: normalised enrichment score
Starting sequence: SGO1 docking peptide (human); PLAKRALKYTDEK
PAAKRALKYTDEK [L2A]: 0.348
ALAKRALKYTDEK [P1A]: 0.292
PLAKRALKYTAEK [D11A]: 0.14
PLAKRAAKYTDEK [L7A]: 0.322
PLAKRALAYTDEK [K8A]: 0.279
PLAKRALKYTDEA [K13A]: 0.0171

Block 6
Target: Sal-like protein 4, full length isoform A (SALL4, Homo sapiens, UniProt Q9UJQ4, residues 1-1053)
UniProt Q9UJQ4, sequence (whole entry, looked up): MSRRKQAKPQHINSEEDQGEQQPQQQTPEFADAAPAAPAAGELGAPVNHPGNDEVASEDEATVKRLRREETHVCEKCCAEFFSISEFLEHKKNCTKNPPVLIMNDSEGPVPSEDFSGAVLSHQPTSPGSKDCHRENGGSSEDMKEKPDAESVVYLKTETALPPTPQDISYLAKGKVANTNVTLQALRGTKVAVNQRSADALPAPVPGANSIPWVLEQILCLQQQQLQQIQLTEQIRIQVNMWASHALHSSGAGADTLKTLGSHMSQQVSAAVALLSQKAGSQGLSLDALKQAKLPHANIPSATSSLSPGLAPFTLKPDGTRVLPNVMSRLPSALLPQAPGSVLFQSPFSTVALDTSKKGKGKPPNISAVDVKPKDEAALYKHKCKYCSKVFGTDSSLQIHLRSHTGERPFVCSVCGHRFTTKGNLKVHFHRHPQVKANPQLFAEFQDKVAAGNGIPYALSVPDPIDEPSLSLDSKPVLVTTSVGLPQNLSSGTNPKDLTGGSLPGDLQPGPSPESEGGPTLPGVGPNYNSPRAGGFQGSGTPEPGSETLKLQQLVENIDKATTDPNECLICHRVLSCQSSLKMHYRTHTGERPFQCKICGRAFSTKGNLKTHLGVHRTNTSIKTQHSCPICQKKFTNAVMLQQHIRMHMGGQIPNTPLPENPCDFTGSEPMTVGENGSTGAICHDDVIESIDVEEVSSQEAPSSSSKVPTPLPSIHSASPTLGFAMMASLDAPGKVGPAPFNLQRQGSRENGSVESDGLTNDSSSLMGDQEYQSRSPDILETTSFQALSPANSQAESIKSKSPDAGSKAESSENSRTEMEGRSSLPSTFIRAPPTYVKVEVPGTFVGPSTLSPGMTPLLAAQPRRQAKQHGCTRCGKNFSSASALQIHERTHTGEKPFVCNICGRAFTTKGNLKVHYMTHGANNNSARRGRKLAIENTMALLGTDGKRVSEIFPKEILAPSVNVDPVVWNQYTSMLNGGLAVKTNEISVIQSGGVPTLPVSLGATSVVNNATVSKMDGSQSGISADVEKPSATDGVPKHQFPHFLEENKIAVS
Technique: universal PBM
Form: double-stranded DNA, one strand shown
Medium: in vitro
Concentration: 600 nM
Setting: 8-mer, flanks averaged, mean of replicates
Direction: higher = stronger binding
Endpoint: E-score
AGTTACTG: 0.0471
CTCAAGAA: 0.107
CCGTACGG: -0.318
GGGCTTGA: -0.278
ATACAGAG: 0.0652
AAAGTGGA: 0.0754
CCTCTAAC: 0.00183
GGAACCCC: -0.372
TATCAGAA: 0.156
CGAGAATC: -0.0845
CGGTCGAA: -0.259
GTAGCCTA: 0.0453
AACTTATT: 0.31
ATGAGCCC: -0.149
GACCGCAA: -0.109
GAATAAGC: 0.116
CCGTAGTC: -0.175
CATCTCGC: -0.222
ACAGATGT: 0.0898
CCGTATTA: -0.0436
